Results of several laboratories.
Lines come from different studies, so protocols differ. “And” joins repeats or separate records; there may be more than shown. ± marks the error that the study gave. Values after ≈ are worked out from the molar mass of the structure shown.

N=C(N)c1ccc(OCc2cc(COc3ccc(C(=N)N)cc3)cc(-c3ccccc3)c2)cc1 — MIC of compound in combination (Escherichia coli; checkerboard; mcr-2 polymyxin-resistant; concentration not given, 20 h, with: rifampicin): 3.13 µg/mL
COC(=O)N1CCC[C@H](C(=O)NCc2nc(-c3ccccc3)cs2)C1 — EC50 (Plasmodium falciparum; SYBR Green growth; asexual blood-stage parasites, 3D7; 72 h): > 5000 nM
CC(=O)NC[C@H]1CN(c2ccc(N3CCOCC3)c(F)c2)C(=O)O1 — MIC50 (Staphylococcus epidermidis; methicillin-resistant, 10 isolates; serum 0%): 1 µg/mL (≈ 2.96 µM)
Cc1cc(OC(C)C)ccc1C(=O)C(C)(C)NC(=O)c1sccc1C — EC50 (basidiomycetes and oomycetes; mycelial growth): > 50 µg/mL
CC(C)n1ncc2c(C(=O)NCC3(C)CNC3)cc(C3CC3)nc21 — plaque area (Enterovirus D68; viral replication; RD, US/MO/14-18947; 0.003 µM; baseline: untreated): 110% and 97.4%
C[C@H](O)[C@@H](O)[C@@H](O)[C@H](O)C=O — log2 fold change (binding, MIDAS equilibrium dialysis LC-MS; A2AR-BRIL thermostabilized; concentration not given; baseline: no-protein control): -0.205
O=C(Nc1ccc(CNc2ncnc3ccccc23)cc1)c1ccc(Cl)c(F)c1 — inhibition (Plasmodium falciparum; schizont egress, Nluc release; Hyp1-Nluc; 10 x growth EC50, 4 h): 77.7%
COCC(=O)N1CCC[C@H](C(=O)NCCc2nc(-c3ccccc3)cs2)C1 — EC50 (Plasmodium falciparum; SYBR Green growth; asexual blood-stage parasites, 3D7; 72 h): 3500 ± 840 nM
Cc1ccc(NC(=O)N2Cc3[nH]cnc3C[C@H]2c2nc(-c3ccc4c(c3)OCO4)no2)cc1 — median lifespan (Caenorhabditis elegans; N2; 12.5 µM): 21 days
CC[C@H]1OC(=O)[C@H](C)[C@@H](O[C@H]2C[C@@](C)(OC)[C@@H](O)[C@H](C)O2)[C@H](C)[C@@H](O[C@@H]2O[C@H](C)C[C@H](N(C)C)[C@H]2O)[C@](C)(O)C[C@@H](C)C(=O)[C@H](C)[C@@H](O)[C@]1(C)O — fluorescein ingestion (Drosophila melanogaster; fluorescence; liquid food, 40 µg/mL, first instar larvae; baseline: solvent): 10.7%
CCOCC(=O)N1CCNC(C(=O)NCc2nc(-c3ccccc3)cs2)C1 (stereo not drawn) — EC50 (Plasmodium falciparum; SYBR Green growth; asexual blood-stage parasites, 3D7; 72 h): 1800 ± 840 nM
CCc1nn(C)c2nc(-c3ccc(C(=O)O)cc3)nc(NCc3ccc(F)cc3)c12 — parasite number (Cryptosporidium parvum; HCT-8; EC50, 48 h; baseline: DMSO control): 37.8% and 52.1% and 43.2% and 37.4%
CNC(=O)c1cc(Oc2ccc(NC(=O)Nc3ccc(F)c(C(F)(F)F)c3)cc2)ccn1 — toxicity (Drosophila melanogaster; rescue from lethality; ptc>dRet M955T; concentration not given, 25 °C, compound in food): not toxic
COCC(=O)N1CCC[C@H](C(=O)NCc2nc(-c3ccc(S(C)(=O)=O)cc3)cs2)C1 — EC50 (Plasmodium falciparum; SYBR Green growth; asexual blood-stage parasites, 3D7; 72 h): 2300 ± 490 nM
CN1CCC[C@@H]1CCO[C@](C)(c1ccccc1)c1ccc(Cl)cc1 — fluorescein ingestion (Drosophila melanogaster; fluorescence; liquid food, 40 µg/mL, first instar larvae; baseline: solvent): -16.9%
CCCCCCCNC1=C(n2cncn2)C(=O)c2ccccc2C1=O — zone of inhibition (Serratia marcescens; MTCC 4301; 10 µg/mL): 8 mm
CN(C)CCCN1c2ccccc2Sc2ccc(C(F)(F)F)cc21 — fluorescein ingestion (Drosophila melanogaster; fluorescence; liquid food, 40 µg/mL, first instar larvae; baseline: solvent): -11.9%
CC(=O)ON=C1C=CC(=C(C#N)c2ccccc2)C=C1 — MFC (Clavispora lusitaniae; broth dilution; ATCC 34449; 48 h, 37 °C): 64 µg/mL (≈ 242 µM)
Cc1ccc(C(C)C)c(OC2=C(Cl)C(=O)c3ccccc3C2=O)c1 — zone of inhibition (Serratia marcescens; MTCC 4301; 10 µg/mL): 21 mm
COCC(=O)N1CCC[C@H](C(=O)NCc2nc(-c3ccc(OC)cc3)cs2)C1 — EC50 (Plasmodium falciparum; SYBR Green growth; asexual blood-stage parasites, 3D7; 72 h): 31 ± 5 nM
O=S(=O)(c1ccc(-c2ccc3nccc(Nc4ccnnc4)c3c2)cc1)N1CCOCC1 — EC50 (Plasmodium falciparum; parasite growth, SYBR Green; D6): 17000 nM
O=C1c2ccc(O)c(O)c2C(=O)c2c(O)ccc(O)c21 — fluorescein ingestion (Drosophila melanogaster; fluorescence; liquid food, 40 µg/mL, first instar larvae; baseline: solvent): -18.2%
C[C@@H]1[C@H](O)[C@@H](C)/C=C/C=C/C=C/C=C/C=C/C=C/C=C/[C@H](O[C@@H]2O[C@H](C)[C@@H](O)[C@H](N)[C@@H]2O)C[C@@H]2O[C@](O)(C[C@@H](O)C[C@@H](O)[C@H](O)CC[C@@H](O)C[C@@H](O)CC(=O)O[C@H]1C)C[C@H](O)[C@H]2C(=O)O — antileishmanial activity (Leishmania major; eosin vital stain; promastigote; 500 µg/mL, 12 h): 57% and 56.3% and 59.2%
N[C@H](COCC(=O)N1CCC[C@H](C(=O)NCc2nc(-c3ccc(C(F)(F)F)cc3)cs2)C1)c1ccccc1 — EC50 (Plasmodium falciparum; SYBR Green growth; asexual blood-stage parasites, 3D7; 72 h): 11 ± 7.4 nM
O=C1C=C2CC3(O)COc4cc(O)ccc4C3=C2C=C1O (stereo not drawn) — fluorescein ingestion (Drosophila melanogaster; fluorescence; liquid food, 40 µg/mL, first instar larvae; baseline: solvent): -21.4%
COc1ccc(OCCCO)cc1-c1cn2cc(-c3nnc(NCCCCc4ccccc4)o3)ccc2n1 — parasite growth (Plasmodium falciparum; nanoluciferase readout; 3D7 Hyp1-Nluc; 2 µM, 72 h; baseline: DMSO): 45.6%
CCOCC(=O)N1CCC[C@@H](CNCc2nc(-c3ccccc3)cs2)C1 — EC50 (Plasmodium falciparum; SYBR Green growth; asexual blood-stage parasites, 3D7; 72 h): > 5000 nM
CNS(=O)(=O)c1ccccc1Nc1nc(Nc2ccc(N3CCOCC3)cc2OC)ncc1Br — parasite growth (Plasmodium falciparum; nanoluciferase readout; 3D7 Hyp1-Nluc; 20 µM, 72 h; baseline: DMSO): 0.317%
Nc1nc(-c2ccccc2)nc2[nH]nc(Nc3ccc(C(F)(F)F)cc3)c12 — clinical score (coxsackievirus B3; 31-1-93, NMRI mice, CVB3 chronic myocarditis; oral, 100 mg/kg twice daily, day 6, dosed days 3 to 10, score scale 0 to 7; direction not given): 1
COC(=O)[C@@H](CCSC)NCc1cc2ccccc2nc1SC — growth (Pseudomonas aeruginosa; 8 µg/mL, with: pentamidine 100 µM; baseline: control): 97.7%
COc1cc(OC)c(CCNC(=O)c2cn3cc(-c4cc(OCC(=O)O)ccc4OC)nc3s2)c(OC)c1 — parasite growth (Plasmodium falciparum; LDH readout; 3D7 Hyp1-Nluc; 20 µM, 72 h; baseline: DMSO): 29.9%
O=S(=O)(c1ccc(-c2ccc3ncccc3c2)cc1)N1CCOCC1 — EC50 (Plasmodium falciparum; parasite growth, SYBR Green; TM91C235): > 20000 nM
COc1ccc(CNc2nc(-c3ccc(C(=O)O)nc3)nc3sc4c(c23)CCCC4)cc1Cl — parasite growth (Plasmodium falciparum; nanoluciferase readout; 3D7 Hyp1-Nluc; 20 µM, 72 h; baseline: DMSO): 0.235%
CN[C@H](CC(C)C)C(=O)N[C@H]1C(=O)N[C@@H](CC(N)=O)C(=O)N[C@H]2C(=O)N[C@H]3C(=O)N[C@H](C(=O)N[C@H](C(=O)O)c4cc(O)cc(O)c4-c4cc3ccc4O)[C@H](O)c3ccc(c(Cl)c3)Oc3cc2cc(c3O[C@@H]2O[C@H](CO)[C@@H](O)[C@H](O)[C@H]2O[C@H]2C[C@](C)(N)[C@H](O)[C@H](C)O2)Oc2ccc(cc2Cl)[C@H]1O — MIC range (Streptococcus anginosus; broth microdilution; clinical isolate): 0.5 µg/mL (≈ 0.345 µM)
CC1(C)c2nc(-c3ccc(F)cc3)c(Nc3ccc(F)cc3)n2CCN1C(=O)CN — EC80 (Plasmodium berghei; parasite growth, luciferase bioluminescence; HepG2 spheroids infected; 24 h): 170 nM
OC[C@@H](O)[C@@H](O)[C@H](O)[C@@H](O)CO — log2 fold change (binding, MIDAS equilibrium dialysis LC-MS; A2AR-BRIL thermostabilized; concentration not given; baseline: no-protein control): -0.204
COC(=O)[C@@H](NCc1cc2ccccc2nc1OCc1ccccc1)C(C)C — growth (Pseudomonas aeruginosa; 32 µg/mL, with: pentamidine 50 µM; baseline: control): 94.1%
COCC(=O)N1CCC[C@H](C(=O)NCc2nc(-c3ccc(NC4CC4)nc3)cs2)C1 — EC50 (Plasmodium falciparum; SYBR Green growth; asexual blood-stage parasites, 3D7; 72 h): 180 ± 23 nM
CC(=Nc1ccc(N=Cc2cnccn2)cc1)N(C)C — anthelmintic rate (Necator americanus; hamster (Mesocricetus auratus), infected; oral, 50 mg/kg single dose, 1 h): 18.9 ± 12.2%

For quick reference, copied from above:
C[C@H](O)[C@@H](O)[C@@H](O)[C@H](O)C=O — log2 fold change (binding, MIDAS equilibrium dialysis LC-MS; A2AR-BRIL thermostabilized; concentration not given; baseline: no-protein control): -0.205
O=C(Nc1ccc(CNc2ncnc3ccccc23)cc1)c1ccc(Cl)c(F)c1 — inhibition (Plasmodium falciparum; schizont egress, Nluc release; Hyp1-Nluc; 10 x growth EC50, 4 h): 77.7%
COCC(=O)N1CCC[C@H](C(=O)NCCc2nc(-c3ccccc3)cs2)C1 — EC50 (Plasmodium falciparum; SYBR Green growth; asexual blood-stage parasites, 3D7; 72 h): 3500 ± 840 nM
